Published values gathered from unrelated publications.
Parts stem from different laboratories: compare values within a part only. Values joined by “and” are separate records of one study, mostly repeats; a detail may differ.

Series 1
Target: Ras GTPase-activating protein-binding protein 1, full length (G3BP1, Homo sapiens, UniProt Q13283)
UniProt Q13283, sequence (whole entry, looked up): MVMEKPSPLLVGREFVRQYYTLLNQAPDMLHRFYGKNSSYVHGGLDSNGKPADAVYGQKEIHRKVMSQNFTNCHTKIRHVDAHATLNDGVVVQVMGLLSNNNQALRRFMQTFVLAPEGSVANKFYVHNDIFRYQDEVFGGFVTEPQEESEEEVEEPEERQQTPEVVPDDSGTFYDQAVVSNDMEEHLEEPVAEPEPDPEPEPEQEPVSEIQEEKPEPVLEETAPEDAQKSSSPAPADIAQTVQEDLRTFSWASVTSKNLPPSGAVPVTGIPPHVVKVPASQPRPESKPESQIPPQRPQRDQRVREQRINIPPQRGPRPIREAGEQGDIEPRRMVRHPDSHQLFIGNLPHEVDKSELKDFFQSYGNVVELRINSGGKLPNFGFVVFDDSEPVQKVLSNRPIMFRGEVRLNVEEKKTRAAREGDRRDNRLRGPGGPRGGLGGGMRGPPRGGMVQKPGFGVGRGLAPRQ
Technique: RNA Bind-n-Seq
Form: RNA
Sample: in vitro
Concentration: 200 nM
Setting: whole 134-nt RNA, ends assumed
With: 150 mM LiCl
Relative to: input library
Direction: higher = stronger binding
Each molecule: 7-deaza-guanosine replaces G
Strand	log2 enrichment
GGGAGUUCUACAGUCCGACGAUCAGUCCUGUGCUACACAUCGUAUGUACCGAAUCAAAUUUUUAAACCCAAACCCCCAAAAAAGUAUUAUGUUACGCCGUUCGGAUCUGCACUUGGAAUUCUCGGGUGUCAAGG	1.15
GGGAGUUCUACAGUCCGACGAUCGUCCUGUGCUACACAUCGUAUGUACCGAAUCGGGGAAAAAGGGGAAAAAGGAAAAAGGAAAGUAUUAUGUUACGCCGUUCGGAUCUGCACUGGAAUUCUCGGGUGUCAAGG	0.147
GGGAGUUCUACAGUCCGACGAUCUGGUUUUGGUGCCUGGCAUCGAAGAUGGUGUGUUCUUUCUGGAAACUGUAUAUCUUAUUGGACUUAUCCAGAUGAUGAGAAACGCAAGGUUGGAAUUCUCGGGUGUCAAGG	-1.27
GGGAGUUCUACAGUCCGACGAUCCUCAAGUCCUGUGCUACACAUCGUAUGUACCGAAUCGGCCCGGGCCCGGCCCGGAAAGUAUUAUGUUACGCCGUUCGGAUCUGCACUUCCUGGAAUUCUCGGGUGUCAAGG	0.956

Series 2
Target: Histone acetyltransferase KAT6A, winged helix 1, GST fusion (KAT6A, Homo sapiens, UniProt Q92794, residues 1-85)
Technique: protein binding microarray
Form: double-stranded DNA, one strand shown
Sample: in vitro
Concentration: not given
Setting: 8-mer, flanks averaged, mean of 2 arrays, mostly near background
Relative to: not given
Direction: higher = stronger binding
Target sequence (chain): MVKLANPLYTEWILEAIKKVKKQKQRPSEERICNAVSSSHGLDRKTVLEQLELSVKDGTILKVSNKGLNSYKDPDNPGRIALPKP
Strand	E-score
AGGGGTAG	-0.239
GTGGAGCA	-0.111
GCCCCGGC	0.287

Series 3
Target: TATA-box-binding protein 1 (TBP1, Arabidopsis thaliana, UniProt P28147, residues 1-200, full length assumed)
Technique: protein-binding microarray
Form: double-stranded DNA, one strand shown
Sample: in vitro
Concentration: not given
Setting: k-mer, scored over probes, only values ≥0.25
Direction: higher = stronger binding
Residues (chain): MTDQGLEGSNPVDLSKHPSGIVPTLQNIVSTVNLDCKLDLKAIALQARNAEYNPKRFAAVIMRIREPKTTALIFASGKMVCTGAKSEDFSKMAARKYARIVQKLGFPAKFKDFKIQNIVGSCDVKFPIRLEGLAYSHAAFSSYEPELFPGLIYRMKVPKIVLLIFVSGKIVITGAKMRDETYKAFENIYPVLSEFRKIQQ
Strand	E-score
AATATAT	0.479
TGCTTAA	0.291
GGTTTAA	0.288

Other studies, line by line
Substance	target	test	test system	conditions	scale	endpoint	result
PhoQ, residues 284 288 289 292 302 303 AEGLLW	PhoP, residues 12 14 15 18 19 LWHCS (Escherichia coli, UniProt P23836)	Sort-seq, refers to: YFP reporter	E. coli	PhoQ-PhoP variant library, with: 10 µM Mg2+	relative to: high Mg2+ state, higher = stronger signaling	fold induction	7.76 and 8.21

Some of these lines once more (series 3):
Strand	E-score
TGCTTAA	0.291
